# Published values gathered from unrelated publications.
# Every numbered part comes from another study and shows a few of its results, in no order.

# Sample 1
# Target: Interferon regulatory factor 7, full length, phosphomimetic (IRF7, Homo sapiens, UniProt Q92985, residues 1-503, S471D/S472D/S475D/S476D/S477D/S483D/S484D/S487D)
# UniProt Q92985, sequence (whole entry, unmodified, looked up): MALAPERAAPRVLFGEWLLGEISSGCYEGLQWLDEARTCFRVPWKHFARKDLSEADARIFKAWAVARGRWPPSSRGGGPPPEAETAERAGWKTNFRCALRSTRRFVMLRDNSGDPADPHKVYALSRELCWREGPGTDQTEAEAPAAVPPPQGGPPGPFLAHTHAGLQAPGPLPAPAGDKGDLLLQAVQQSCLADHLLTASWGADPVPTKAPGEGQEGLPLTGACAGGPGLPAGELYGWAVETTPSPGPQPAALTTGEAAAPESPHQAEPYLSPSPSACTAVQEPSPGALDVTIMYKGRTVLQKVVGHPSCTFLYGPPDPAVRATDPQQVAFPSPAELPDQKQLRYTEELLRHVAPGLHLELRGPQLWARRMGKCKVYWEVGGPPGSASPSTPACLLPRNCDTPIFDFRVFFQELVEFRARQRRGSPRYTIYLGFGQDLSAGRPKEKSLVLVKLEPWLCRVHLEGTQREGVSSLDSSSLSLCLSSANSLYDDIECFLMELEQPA
# Method: protein-binding microarray
# Form: double-stranded DNA, one strand shown
# Matrix: in vitro
# Concentration: 2200 nM top
# Setting: 60-bp whole probe
# Added: salmon DNA 0.4 mg/ml
# Relative to: random background probes
# Reading: higher = stronger binding
# All sequences stand within: GCCTAGCAC … GTCTTGATTCGCTTGACGCTGCTG
Strand,fitted relative affinity [z-score]
TTAGGTTTCCTACTGGTTTAGTGCTAG,1.2
TTAGGTTCCGGTTTGGGTTAGTGCTAG,4.27
GTATATATGTGTATATATAAGTGCTAG,0.797
ACAGCCTTTCTAACTTGAAAGTGCTAG,0.538
TTAGGCCTGGGTATCGGTTAGTGCTAG,-0.445
GACAGTTTCGACTATCGGGACGTGCTA,4.31
TCACCTCACAGTTTGTAACTGTGCTAG,1.16
TTAGGTTCCCTTTGCCTTTAGTGCTAG,2.05
GACGATCTCGGTCTCGAGACGTGCTAG,0.153
TTTTTTTTTTTTTACTTCGGGTGCTAG,2.38
TTAGGTTTCGGGTATCGGGTAGTGCTA,6.12
GACGATTTCGGGTTTCGAGAAGTGCTA,4.65
TTAGATTTCAGTCTCGATGAGTGCTAG,0.379
GACGGTCTCGGTAACGGGACGTGCTAG,-0.725
GACGGACTGGTCTTTCGGGACGTGCTA,0.438
TCATAAATATCTTTGTTACTGTGCTAG,0.217
TGTAGCTGGAGAAGTAAAACGTGCTAG,-0.757
TTAGATTTCGGGTTTCGCTTAGTGCTA,5.95
GACCATATCAGACTGGAGACGTGCTAG,0.226

# Sample 2
# Target: RNA binding protein fox-1 homolog 2, RRM domain, GST-SBP tag (RBFOX2, Homo sapiens, UniProt O43251-10, residues 100-194)
# Method: RNA Bind-n-Seq
# Form: RNA
# Matrix: in vitro
# Concentration: 365 nM
# Setting: natural RNA segment, single round, ends assumed
# Relative to: no-protein control
# Reading: higher = stronger binding
# All sequences stand within: GGGAGUUCUACAGUCCGACGAUC … UGGAAUUCUCGGGUGCCAA
# Target sequence (chain): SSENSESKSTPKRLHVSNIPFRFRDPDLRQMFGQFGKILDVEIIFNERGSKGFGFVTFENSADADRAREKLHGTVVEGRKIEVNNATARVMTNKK
Strand,RBNS enrichment (R)
GGGGGAGCUUUGGACACAGGACCAGUUUGGAAAAGGGUCAGGUAAGGGUUUCCACUCUGCACAUUGUAGAGGGAACACUCUGUAGGCCCAUGGGUCCCUUACUAGAGAGG,3.16
AGUUUUACAGAAAUUUGGCUGCACUCUGAGAGUGCUUACUCACAGUUUAUUUGCUUUUUUUAAAAAGGAGAUUAUUCUAAAAUAUAAACUUAUUUGCAUAUAUUGGAGGA,0.606
UUAUUUUUACAAAUUAUUGGAAAGAUAUCAUCAAUCGUAAAUUAGCCCUAAAACCUAAAUUUCAUUCAUGAAAUUUUUUUCUAAUUUUAAACACCCAGAAUCCCAUGUCC,0.308
UUGCUUGAGCAACGACUGAGGGCUGCCAGCUUUUGCUGACAAGGUAGGAUGGGACCCCCAAUAAGUGGGUAUGGAUAUAUUUUUUUUUGUCUCUGUUCUGUUUAAACUUA,0.821
UCUGCACUGUGUUUGCCAGCCCUGCCCCCAUCUGAUGGACCAGGCAGUCCUUUAUCUGGAGGGAAAAGUCUGAUGCCAGCAGAGGUCCUGGGGCGCUGCUCUCCCAGGUC,0.25
UGACUCCUGUCCCCAAGGGAGGCAUUGUGGUCCUGUCCCCUUGGUAGAGCUCCUGAGGUACUGUUCCAGUGAGGGGCAUUAUGAGAGGAGCGGGGCAGCCCAGGAGGUCU,0.685
UAACUGUAAAAGGCCCCUACACGUGACGCCAUCUGGACACCCACUCUGGCGGGGGUGGCACCACCCACCGCCGUCCUGGGAAGCCAUCACCGCUCAUCUGUGCCCGCGGC,0.361
AGAGCUCAUGUUCAUGUUUUAGAAGCCCUUUCUUUCUAGGUGUCUCUCAAAAGACUGGCUUAAUUGGAAUAAAAUAGCUUUUUUUUUUUAAGUGUCCCAAAGAUAAGAUA,0.658

# Sample 3
# Target: Sal-like protein 4, full length isoform A (SALL4, Homo sapiens, UniProt Q9UJQ4, residues 1-1053)
# UniProt Q9UJQ4, sequence (whole entry, looked up): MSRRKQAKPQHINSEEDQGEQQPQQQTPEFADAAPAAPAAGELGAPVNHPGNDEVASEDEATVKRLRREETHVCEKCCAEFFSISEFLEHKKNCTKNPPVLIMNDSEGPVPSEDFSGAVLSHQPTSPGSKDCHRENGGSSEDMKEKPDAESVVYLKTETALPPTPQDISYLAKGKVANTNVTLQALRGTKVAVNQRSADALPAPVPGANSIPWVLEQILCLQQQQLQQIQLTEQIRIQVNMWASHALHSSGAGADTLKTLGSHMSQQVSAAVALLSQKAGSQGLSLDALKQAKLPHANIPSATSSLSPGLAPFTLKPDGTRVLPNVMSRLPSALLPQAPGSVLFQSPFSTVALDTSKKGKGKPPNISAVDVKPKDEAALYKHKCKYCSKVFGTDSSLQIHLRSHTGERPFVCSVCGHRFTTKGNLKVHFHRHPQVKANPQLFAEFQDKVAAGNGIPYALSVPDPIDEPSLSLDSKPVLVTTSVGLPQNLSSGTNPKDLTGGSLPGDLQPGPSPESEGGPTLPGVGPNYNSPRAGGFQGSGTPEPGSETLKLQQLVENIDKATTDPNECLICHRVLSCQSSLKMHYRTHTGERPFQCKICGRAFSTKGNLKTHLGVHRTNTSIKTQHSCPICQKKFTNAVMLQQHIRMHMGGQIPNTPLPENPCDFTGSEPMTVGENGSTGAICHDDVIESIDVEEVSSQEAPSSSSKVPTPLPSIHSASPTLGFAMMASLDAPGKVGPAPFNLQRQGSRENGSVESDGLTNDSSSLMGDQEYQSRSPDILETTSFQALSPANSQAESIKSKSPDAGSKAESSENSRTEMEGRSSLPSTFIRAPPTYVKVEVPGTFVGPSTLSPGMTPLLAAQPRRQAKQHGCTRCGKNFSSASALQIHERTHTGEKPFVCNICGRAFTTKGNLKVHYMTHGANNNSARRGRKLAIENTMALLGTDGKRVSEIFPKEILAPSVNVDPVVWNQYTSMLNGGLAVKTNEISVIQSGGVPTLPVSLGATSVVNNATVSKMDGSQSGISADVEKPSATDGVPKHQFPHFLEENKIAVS
# Method: universal PBM
# Form: double-stranded DNA, one strand shown
# Matrix: in vitro
# Concentration: 600 nM
# Setting: 8-mer, flanks averaged, mean of replicates
# Reading: higher = stronger binding
Strand,E-score
GCGCCATA,-0.00332
AGTGTACC,-0.134
AGCCCAGA,-0.231
ACCTAAAA,0.0451
ACAGGGGG,-0.262
AATCGCGA,-0.00715
CGCTCGAA,-0.035
AGTCGAGC,-0.314
AGCTGGCG,-0.36
AGTCTTAG,-0.0983
AACTAGCC,-0.116
ATCCCAAT,0.208
ACTACGAC,-0.105
GGTCTCAC,-0.0884
GACAAAGC,0.0196
AGTCCTGC,-0.212
AACGTATC,-0.0712
ATGAAAAC,0.314
AACTTTGT,0.141
ACCGTCCG,-0.241
ACCTGGTC,-0.278
GAGACAGC,-0.138
CTACTTGA,-0.0337
CCCTGACC,-0.276
ACCGTAGA,0.0517

# Sample 4
# Target: Histone acetyltransferase KAT6A, winged helix 1, GST fusion (KAT6A, Homo sapiens, UniProt Q92794, residues 1-85)
# Method: protein binding microarray
# Form: double-stranded DNA, one strand shown
# Matrix: in vitro
# Concentration: not given
# Setting: 8-mer, flanks averaged, mean of 2 arrays, mostly near background
# Relative to: not given
# Reading: higher = stronger binding
# Residues (chain): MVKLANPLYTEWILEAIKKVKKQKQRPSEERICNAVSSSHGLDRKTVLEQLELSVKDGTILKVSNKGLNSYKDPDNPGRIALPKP
Strand,E-score
GCTCAAAC,-0.0266
GCCGCTGA,0.338
AGAGTGGG,-0.0741
AGGAGTGA,-0.155
TAACAAGA,-0.197
AGATTAAG,-0.174
CACGGTAG,0.136
GAGCCGGC,0.365
AACCAGAC,-0.137
ACTCGAAG,-0.0877
AAAATTAA,-0.042
ATCGCCCG,0.316
AGCTAAAA,-0.117
GGGATCAC,-0.0295
AGTTTGCA,-0.204
TGTATAAA,-0.0688
ACACGATG,-0.066
CCAAATAG,-0.258
GCCATCCA,-0.0381
CCCAAACG,-0.0499
ATTTCGGA,0.105
CGGTTCGC,0.22
TACGTCCA,-0.134
CGGTTGGA,0.0253
ACGTAAAT,-0.0525

# Repeated from above (sample 2):
Strand,RBNS enrichment (R)
GGGGGAGCUUUGGACACAGGACCAGUUUGGAAAAGGGUCAGGUAAGGGUUUCCACUCUGCACAUUGUAGAGGGAACACUCUGUAGGCCCAUGGGUCCCUUACUAGAGAGG,3.16
UAACUGUAAAAGGCCCCUACACGUGACGCCAUCUGGACACCCACUCUGGCGGGGGUGGCACCACCCACCGCCGUCCUGGGAAGCCAUCACCGCUCAUCUGUGCCCGCGGC,0.361
AGAGCUCAUGUUCAUGUUUUAGAAGCCCUUUCUUUCUAGGUGUCUCUCAAAAGACUGGCUUAAUUGGAAUAAAAUAGCUUUUUUUUUUUAAGUGUCCCAAAGAUAAGAUA,0.658
AGUUUUACAGAAAUUUGGCUGCACUCUGAGAGUGCUUACUCACAGUUUAUUUGCUUUUUUUAAAAAGGAGAUUAUUCUAAAAUAUAAACUUAUUUGCAUAUAUUGGAGGA,0.606
UGACUCCUGUCCCCAAGGGAGGCAUUGUGGUCCUGUCCCCUUGGUAGAGCUCCUGAGGUACUGUUCCAGUGAGGGGCAUUAUGAGAGGAGCGGGGCAGCCCAGGAGGUCU,0.685
UUAUUUUUACAAAUUAUUGGAAAGAUAUCAUCAAUCGUAAAUUAGCCCUAAAACCUAAAUUUCAUUCAUGAAAUUUUUUUCUAAUUUUAAACACCCAGAAUCCCAUGUCC,0.308
UCUGCACUGUGUUUGCCAGCCCUGCCCCCAUCUGAUGGACCAGGCAGUCCUUUAUCUGGAGGGAAAAGUCUGAUGCCAGCAGAGGUCCUGGGGCGCUGCUCUCCCAGGUC,0.25
